# Results from different studies.
# Each numbered part is a random draw from the data of one study; scales do not carry over between parts.

# Set 1 — technique: protein-binding microarray; form: double-stranded DNA, one strand shown; matrix: in vitro; tested at: 250 nM; notes: 60-bp whole probe; added: salmon DNA 0.4 mg/ml; baseline: random background probes; reading: higher = stronger binding; shared flanks, not repeated: GCCTAGCAC … GTCTTGATTCGCTTGACGCTGCTG
# Target: Interferon regulatory factor 5, full length, phosphomimetic (IRF5, Homo sapiens, UniProt Q13568-2, residues 1-514, K96S/S451D/S453D/S456D/S462D)
Sequence,log fluorescence [z-score]
TTAGGTATCGTTATCCTTTAGTGCTAG,3.2
GACAGTATCCTTATCCTGACGTGCTAG,0.298
GTCGATCTCAGTATCGAGACGTGCTAG,2.12
CTTTCTTTCCATACTGCAAGGTGCTAG,2.7
CACGGTATCGGTCTCGGGACGTGCTAG,4.67
TTAGTTCTGAGTCTTCCCTTGTGCTAG,0.452
GACAGTTTCGGGACTGGGGACGTGCTA,7.71
TTAGGACTGCTACTGCTATAGTGCTAG,-0.342
TTAGGTCTCGGTATCGGTTCGTGCTAG,3.93
GACGATTCCAGACTGGAGACGTGCTAG,-0.342
GACGCACTGGACTTTCGGGACGTGCTA,4.49
GACGAATTGAGTCTCGAGACGTGCTAG,0.0267
TCATGTGTTACTTTCTAACTGTGCTAG,1.19
GACGGTATCTGGTTTCGGGACGTGCTA,4.13
GACCGTTTCGGGACTGGGGACGTGCTA,3.65
GACGGTTTCGGACTCGGGACGTGCTAG,3.79
GACGATATCGGGTGTCGAGACGTGCTA,1.46
TCAACTCTCTAATTTTGACTGTGCTAG,0.477
GACGGTTGCGGACTGGGGACGTGCTAG,-0.138

# Set 2 — technique: RNA Bind-n-Seq; form: RNA; matrix: in vitro; tested at: 365 nM; baseline: no-protein control; reading: higher = stronger binding
# Target: RNA binding protein fox-1 homolog 2, RRM domain, GST-SBP tag (RBFOX2, Homo sapiens, UniProt O43251-10, residues 100-194)
# Notes: natural RNA segment, single round, ends assumed
# Shared flanks, not repeated: GGGAGUUCUACAGUCCGACGAUC … UGGAAUUCUCGGGUGCCAA
Sequence,RBNS enrichment (R)
UUUUUUUUUUUUAAUUUGGUCAUGGGGACCAAGGAGAAGGCAUGAAUCCCUGUAUUUGGCUCUUGCAGCCUCAGGCACUGUGCCUACUCUCCAGGUCAUGUCCCUGUGGU,1.41
CCUGGGGUUUUUCCUCUUCCUUCUUUGUGGUUUCUGUUUUGUAAUUUAAGAAGAGCUAUUCAUCACUGUAAUUAUUAUUAUUUUCUACAAUAAAUGGGACCUGUGCACAG,0.379
AAUCCAAGAGCUAUAAUUUUUAAAAAAAAAAAUCUUUUAUUUUAAUACAUUGUAGGAAAUCUUCAUAAUUGGAGAAAGUUCUGCAGCAUGGCUUUUUACGUCUGUAAAUA,0.569
CUGUAUUGGCUCAGUGCUUUCAGGAGUGAGUGUGUGAGUGAGUGUGUGAGUGUGUGUGGGCGUGAGCGGGUGUGUACGUACCAAUAAACAUCCUGGUUUUAAGACAAUGU,1.21
CCAUUCUACUCCCAGUCCGGAAUGCCACGAGGACCUUAACCUUGUUUCUGGCUUUAGCUGCUAGUUUUCCCAAAUCUCAGUGCUUUCCCUUUUUGAACUUCCCUUCUAUU,1.05
GCCUCUCUAGAGCCCCCAAAGUCAGGCAGCAGCUGGAGUAGUUACAUUGUCAUCAUCUUUUUUUUUGAGACAGUUUCGCUCUGUUGCCCAGGCUGGAGUGCAGUGGUGUG,0.681
AGCUGUGCAGGCAUGGUCCCUUAAGGCACAGUGGGAGCUGAGCUGGAAGGGGCCACGUGGAUGGGCAAAGCUUGUCAAAGAUGCCCCCUCCAGGAGAGAGCCAGGAUGCC,0.475
AUGAAAACAGGAAAAAAAUAAAACAAAUUUAGAAAACACAGCUCAUUAAAAUAAAAUUGUUGGAUUUAUUUCCCCAGGUCUUCAGUGUUGAUGUAAAUGUGUUUCUGUAG,1.85

# Set 3 — technique: universal PBM; form: double-stranded DNA, one strand shown; matrix: in vitro; tested at: not given; reading: higher = stronger binding
# Target: Sal-like protein 4, full length isoform B (SALL4, Homo sapiens, UniProt Q9UJQ4-2, residues 1-616)
# Notes: 8-mer, flanks averaged, mean of replicates
Sequence,E-score
CACAATTA,0.288
ATCCCAAC,-0.023
ACCCCTAA,-0.0995
ACCAAAGC,-0.206
ATTCTCAG,0.12
CTTTTCGC,0.0231
TGCAGTAA,0.111
CAGCTTGC,-0.083
GCAGCCCA,-0.209
AGCCGACA,-0.23
AGGTCAAT,0.207
ACTGGCCG,-0.32
CAAATCTG,0.0332
AAGGTGAA,-0.0636
AAAAGTTT,0.164
AACGTCTG,-0.149
AAGCCTGA,-0.0256
CCAGGGTA,-0.229
GTTGCCGA,-0.159
ATACGTAC,0.148
ACAGAGAT,0.12
CGTTATAC,0.115
GATTACAA,0.213
ACTCTTCC,0.0233
GAGTTAAC,0.0898

# Set 4 — technique: RNA Bind-n-Seq; form: RNA; matrix: in vitro; tested at: 200 nM; notes: whole 134-nt RNA, ends assumed; added: 150 mM KCl; baseline: input library; reading: higher = stronger binding
# Target: Fragile X messenger ribonucleoprotein 1, C-terminal low-complexity region (Fmr1, Mus musculus, UniProt P35922)
# Shared flanks, not repeated: GGGAGUUCUACAGUCCGACGAUC … UGGAAUUCUCGGGUGUCAAGG
Sequence,log2 enrichment
GUCCUGUGCUACACAUCGUAUGUACCGAAUCGGUUUUUUUGGUUUUUUUGGAAAAAGGAAAGUAUUAUGUUACGCCGUUCGGAUCUGCAC,-0.86
UGUGUGACUUCCUUGGAGAGAAGAUUGCAUCUGUUUUGGGUAUCAGCACCCCAAAGUACCAAUAUGCCAUUGAUGAAUAUUAUCGGAUGA,-0.283
AGUCCUGUGCUACACAUCGUAUGUACCGAAUCAAAUUUUUAAACCCCCAAAUUUAAAAAAGUAUUAUGUUACGCCGUUCGGAUCUGCACU,-0.128
CUGUGCUACACAUCGUAUGUACCGAAUCGGGGUUUUUUUGGGGUUUUUUUGGUUUUUUUGGGAAAGUAUUAUGUUACGCCGUUCGGAUCU,-0.208
ACCAUGCAGGUGGGCAUCUUUGGGAAGUGGGGCAAGGGGGGGAUAGGGUGGGGGGUAACACUUUGGGAACAGGUGGUCCCAGGUCGUUUC,0.828
CCUCAAGUCCUGUGCUACACAUCGUAUGUACCGAAUCGGGCGGGCGGGGCGGAAAGUAUUAUGUUACGCCGUUCGGAUCUGCACUUCCAG,0.972
CCUGUGCUACACAUCGUAUGUACCGAAUCGGGAAAAAGGGAAAAAAAGGGAAAAAAAGGGAAAGUAUUAUGUUACGCCGUUCGGAUCUGC,-0.74
ACCAUGCAGGUGUGCAUCUUUGGGAAGUGGGGCAAGGGGGGGAUAGGGAGGGGGGUAACACUUUGGGAACAGGUGGUCCCAGGUCGUUUC,0.707
ACUGAGGUACUGCCCUCCCCUGCCCCCUACCCUCUCCCUUGUCCCUCUACCCCGUUCCUCCCCUUCCCUCCAUUCCCUUUCCCCAACCUG,0.527

# Excerpt of the above (set 2):
Sequence,RBNS enrichment (R)
UUUUUUUUUUUUAAUUUGGUCAUGGGGACCAAGGAGAAGGCAUGAAUCCCUGUAUUUGGCUCUUGCAGCCUCAGGCACUGUGCCUACUCUCCAGGUCAUGUCCCUGUGGU,1.41
CCUGGGGUUUUUCCUCUUCCUUCUUUGUGGUUUCUGUUUUGUAAUUUAAGAAGAGCUAUUCAUCACUGUAAUUAUUAUUAUUUUCUACAAUAAAUGGGACCUGUGCACAG,0.379
AAUCCAAGAGCUAUAAUUUUUAAAAAAAAAAAUCUUUUAUUUUAAUACAUUGUAGGAAAUCUUCAUAAUUGGAGAAAGUUCUGCAGCAUGGCUUUUUACGUCUGUAAAUA,0.569
CUGUAUUGGCUCAGUGCUUUCAGGAGUGAGUGUGUGAGUGAGUGUGUGAGUGUGUGUGGGCGUGAGCGGGUGUGUACGUACCAAUAAACAUCCUGGUUUUAAGACAAUGU,1.21
CCAUUCUACUCCCAGUCCGGAAUGCCACGAGGACCUUAACCUUGUUUCUGGCUUUAGCUGCUAGUUUUCCCAAAUCUCAGUGCUUUCCCUUUUUGAACUUCCCUUCUAUU,1.05
GCCUCUCUAGAGCCCCCAAAGUCAGGCAGCAGCUGGAGUAGUUACAUUGUCAUCAUCUUUUUUUUUGAGACAGUUUCGCUCUGUUGCCCAGGCUGGAGUGCAGUGGUGUG,0.681
AGCUGUGCAGGCAUGGUCCCUUAAGGCACAGUGGGAGCUGAGCUGGAAGGGGCCACGUGGAUGGGCAAAGCUUGUCAAAGAUGCCCCCUCCAGGAGAGAGCCAGGAUGCC,0.475
AUGAAAACAGGAAAAAAAUAAAACAAAUUUAGAAAACACAGCUCAUUAAAAUAAAAUUGUUGGAUUUAUUUCCCCAGGUCUUCAGUGUUGAUGUAAAUGUGUUUCUGUAG,1.85
